Measured values of several laboratories.
Protocols differ between the studies behind these lines. Numbers after ± are the reported error.
Sample: plasma

CC(C)(Sc1ccncc1-c1ccc(C#N)c2ccccc12)C(=O)OC1OC(C(=O)O)C(O)C(O)C1O (centres unmarked)  AUC(0-inf) (oral, 15 mg, mild renal impairment, fasted): 266 ng·h/mL
CC(C)[C@H](NC(=O)CNC(=O)[C@H](CCC(N)=O)NC(=O)[C@H](C)N)C(=O)O  AUC(0-inf) (healthy volunteers, LPS endotoxaemia; intravenous, 90 mg/kg/h, 2 h infusion, geometric mean, with: LPS 2 ng/kg): 19700 ng·h/mL
COc1cc(C)c(Cc2ccc(O)cc2)cc1[C@@H]1S[C@H](CO)[C@@H](O)[C@H](O)[C@H]1O  AUC(0-inf) (Japanese T2DM patients; 0.5 mg luseogliflozin, day 1, once daily): 28.6 ± 6.17 ng·h/mL
CC(C)(Sc1cc[n+]([O-])cc1-c1ccc(C#N)c2ccccc12)C(=O)OC1OC(C(=O)O)C(O)C(O)C1O (centres unmarked)  AUC(0-inf) (oral, 15 mg, severe renal impairment, fasted): 1570 ng·h/mL
O=C(O)c1cccc(S(=O)(=O)Nc2ccccc2)c1  AUC(0-inf) (patients with normal liver function; intravenous, 400 mg/m^2 belinostat, single 30 min infusion, cycle 1 day -7, mean): 16800 ng·h/mL
Cc1ccccc1-c1cc(N2CCNCC2)ncc1N(C)C(=O)C(C)(C)c1cc(C(F)(F)F)cc(C(F)(F)F)c1  AUC(0-inf) (healthy volunteers; oral, dose not given, netupitant-palonosetron, standard dissolution capsule): 5160 ng·h/mL
O=C(O)/C=C/c1cccc(S(=O)(=O)Nc2ccccc2)c1  AUC(0-inf) (patients with normal liver function; intravenous, 400 mg/m^2 belinostat, single 30 min infusion, cycle 1 day -7, mean): 6020 ng·h/mL
CN1CCN(c2cc(-c3ccccc3CO)c(N(C)C(=O)C(C)(C)c3cc(C(F)(F)F)cc(C(F)(F)F)c3)cn2)CC1  AUC(0-inf) (cancer patients; oral, dose not given, netupitant-palonosetron single dose, range of means): 5290 to 5950 ng·h/mL

For quick reference, copied from above:
O=C(O)c1cccc(S(=O)(=O)Nc2ccccc2)c1  AUC(0-inf) (patients with normal liver function; intravenous, 400 mg/m^2 belinostat, single 30 min infusion, cycle 1 day -7, mean): 16800 ng·h/mL
